Assay results of several laboratories.
Parts stem from different laboratories: compare values within a part only. Values joined by “and” are separate records of one study, mostly repeats; a detail may differ.
Chain of UniProt P21127 (whole entry, looked up): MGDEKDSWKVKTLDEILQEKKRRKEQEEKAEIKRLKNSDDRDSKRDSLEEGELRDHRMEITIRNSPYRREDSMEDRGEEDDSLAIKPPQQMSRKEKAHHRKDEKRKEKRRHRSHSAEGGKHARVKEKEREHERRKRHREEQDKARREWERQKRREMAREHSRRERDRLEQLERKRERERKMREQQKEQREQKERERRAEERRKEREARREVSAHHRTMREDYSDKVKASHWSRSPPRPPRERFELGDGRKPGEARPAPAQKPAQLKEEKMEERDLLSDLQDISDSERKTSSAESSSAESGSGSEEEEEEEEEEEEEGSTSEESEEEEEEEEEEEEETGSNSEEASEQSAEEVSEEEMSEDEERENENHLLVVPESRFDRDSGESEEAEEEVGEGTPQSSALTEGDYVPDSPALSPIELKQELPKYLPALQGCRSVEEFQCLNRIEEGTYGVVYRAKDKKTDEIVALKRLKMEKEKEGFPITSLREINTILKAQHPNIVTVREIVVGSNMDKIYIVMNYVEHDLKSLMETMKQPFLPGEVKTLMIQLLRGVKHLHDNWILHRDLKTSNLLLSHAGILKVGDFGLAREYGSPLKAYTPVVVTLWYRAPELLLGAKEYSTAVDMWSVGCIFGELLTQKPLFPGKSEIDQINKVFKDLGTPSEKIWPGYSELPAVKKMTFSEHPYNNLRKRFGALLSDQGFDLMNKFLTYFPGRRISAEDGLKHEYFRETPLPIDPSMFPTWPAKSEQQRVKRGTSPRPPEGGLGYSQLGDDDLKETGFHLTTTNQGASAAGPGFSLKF
Chain of UniProt O75676 (whole entry, looked up): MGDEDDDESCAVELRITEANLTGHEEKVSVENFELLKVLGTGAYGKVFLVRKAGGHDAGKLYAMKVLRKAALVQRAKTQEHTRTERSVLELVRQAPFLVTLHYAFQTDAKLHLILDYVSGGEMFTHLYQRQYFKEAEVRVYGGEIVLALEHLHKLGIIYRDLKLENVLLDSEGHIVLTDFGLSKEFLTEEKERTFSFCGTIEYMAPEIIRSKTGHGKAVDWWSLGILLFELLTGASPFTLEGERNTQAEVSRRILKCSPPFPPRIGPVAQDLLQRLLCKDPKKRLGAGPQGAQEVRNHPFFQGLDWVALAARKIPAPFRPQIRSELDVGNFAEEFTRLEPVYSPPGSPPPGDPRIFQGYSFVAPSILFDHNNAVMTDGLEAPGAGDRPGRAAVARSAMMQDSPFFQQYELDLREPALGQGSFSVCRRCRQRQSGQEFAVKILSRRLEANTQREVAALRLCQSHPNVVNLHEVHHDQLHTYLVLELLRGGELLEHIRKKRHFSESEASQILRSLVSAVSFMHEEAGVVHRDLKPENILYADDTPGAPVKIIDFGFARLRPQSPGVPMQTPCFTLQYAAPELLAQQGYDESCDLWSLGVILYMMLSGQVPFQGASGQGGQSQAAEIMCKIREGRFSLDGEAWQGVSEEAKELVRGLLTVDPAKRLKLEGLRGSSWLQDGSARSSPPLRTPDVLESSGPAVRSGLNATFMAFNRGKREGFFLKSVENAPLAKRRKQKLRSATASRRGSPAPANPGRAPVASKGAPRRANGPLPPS
Chain of UniProt Q8N568 (whole entry, looked up): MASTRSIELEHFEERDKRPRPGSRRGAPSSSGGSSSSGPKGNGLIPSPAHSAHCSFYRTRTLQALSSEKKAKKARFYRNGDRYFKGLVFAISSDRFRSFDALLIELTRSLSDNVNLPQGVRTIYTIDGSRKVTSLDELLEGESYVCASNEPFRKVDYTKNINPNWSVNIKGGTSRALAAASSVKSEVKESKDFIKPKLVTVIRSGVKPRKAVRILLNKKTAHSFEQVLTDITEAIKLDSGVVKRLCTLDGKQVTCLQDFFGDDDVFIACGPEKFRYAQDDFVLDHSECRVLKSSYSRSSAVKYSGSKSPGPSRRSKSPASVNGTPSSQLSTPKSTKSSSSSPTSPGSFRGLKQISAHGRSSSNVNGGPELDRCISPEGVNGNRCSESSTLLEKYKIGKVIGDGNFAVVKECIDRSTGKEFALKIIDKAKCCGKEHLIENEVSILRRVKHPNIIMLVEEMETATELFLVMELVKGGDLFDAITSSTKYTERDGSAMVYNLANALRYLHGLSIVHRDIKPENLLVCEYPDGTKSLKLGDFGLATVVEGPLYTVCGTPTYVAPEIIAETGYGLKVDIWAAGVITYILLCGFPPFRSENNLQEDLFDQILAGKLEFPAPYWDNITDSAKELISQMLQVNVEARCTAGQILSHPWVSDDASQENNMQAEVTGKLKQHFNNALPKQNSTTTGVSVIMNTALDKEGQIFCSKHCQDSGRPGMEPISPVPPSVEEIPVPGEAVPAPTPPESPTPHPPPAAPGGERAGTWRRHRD
Chain of UniProt P42336 (whole entry, unmodified, looked up): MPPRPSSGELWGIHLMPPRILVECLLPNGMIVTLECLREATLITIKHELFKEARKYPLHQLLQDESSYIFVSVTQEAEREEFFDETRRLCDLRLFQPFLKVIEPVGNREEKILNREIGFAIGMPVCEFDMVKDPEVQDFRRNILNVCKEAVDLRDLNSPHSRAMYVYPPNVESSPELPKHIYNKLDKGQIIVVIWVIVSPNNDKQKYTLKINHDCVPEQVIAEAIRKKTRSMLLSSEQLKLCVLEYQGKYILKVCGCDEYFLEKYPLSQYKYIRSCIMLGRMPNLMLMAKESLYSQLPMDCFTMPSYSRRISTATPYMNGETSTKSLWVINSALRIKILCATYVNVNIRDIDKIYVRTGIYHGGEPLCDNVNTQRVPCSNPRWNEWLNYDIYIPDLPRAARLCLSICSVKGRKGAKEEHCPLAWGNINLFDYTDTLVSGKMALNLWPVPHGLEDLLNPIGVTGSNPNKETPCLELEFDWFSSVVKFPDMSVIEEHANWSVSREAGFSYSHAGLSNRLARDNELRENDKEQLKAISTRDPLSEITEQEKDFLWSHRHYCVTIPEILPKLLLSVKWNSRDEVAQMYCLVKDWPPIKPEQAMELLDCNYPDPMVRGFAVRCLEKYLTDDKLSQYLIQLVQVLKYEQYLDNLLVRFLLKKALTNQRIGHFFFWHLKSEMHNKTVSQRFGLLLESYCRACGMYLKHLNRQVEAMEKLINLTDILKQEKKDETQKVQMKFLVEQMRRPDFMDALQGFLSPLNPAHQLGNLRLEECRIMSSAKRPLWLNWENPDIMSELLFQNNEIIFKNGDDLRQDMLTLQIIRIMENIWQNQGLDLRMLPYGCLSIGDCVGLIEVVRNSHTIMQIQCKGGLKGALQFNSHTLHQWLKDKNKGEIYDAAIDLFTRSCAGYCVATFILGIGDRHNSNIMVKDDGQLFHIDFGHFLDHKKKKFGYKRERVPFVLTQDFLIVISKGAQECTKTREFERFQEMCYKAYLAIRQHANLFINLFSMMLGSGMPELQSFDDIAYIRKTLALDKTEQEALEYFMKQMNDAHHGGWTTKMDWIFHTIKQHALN
Chain of UniProt Q16832 (whole entry, looked up): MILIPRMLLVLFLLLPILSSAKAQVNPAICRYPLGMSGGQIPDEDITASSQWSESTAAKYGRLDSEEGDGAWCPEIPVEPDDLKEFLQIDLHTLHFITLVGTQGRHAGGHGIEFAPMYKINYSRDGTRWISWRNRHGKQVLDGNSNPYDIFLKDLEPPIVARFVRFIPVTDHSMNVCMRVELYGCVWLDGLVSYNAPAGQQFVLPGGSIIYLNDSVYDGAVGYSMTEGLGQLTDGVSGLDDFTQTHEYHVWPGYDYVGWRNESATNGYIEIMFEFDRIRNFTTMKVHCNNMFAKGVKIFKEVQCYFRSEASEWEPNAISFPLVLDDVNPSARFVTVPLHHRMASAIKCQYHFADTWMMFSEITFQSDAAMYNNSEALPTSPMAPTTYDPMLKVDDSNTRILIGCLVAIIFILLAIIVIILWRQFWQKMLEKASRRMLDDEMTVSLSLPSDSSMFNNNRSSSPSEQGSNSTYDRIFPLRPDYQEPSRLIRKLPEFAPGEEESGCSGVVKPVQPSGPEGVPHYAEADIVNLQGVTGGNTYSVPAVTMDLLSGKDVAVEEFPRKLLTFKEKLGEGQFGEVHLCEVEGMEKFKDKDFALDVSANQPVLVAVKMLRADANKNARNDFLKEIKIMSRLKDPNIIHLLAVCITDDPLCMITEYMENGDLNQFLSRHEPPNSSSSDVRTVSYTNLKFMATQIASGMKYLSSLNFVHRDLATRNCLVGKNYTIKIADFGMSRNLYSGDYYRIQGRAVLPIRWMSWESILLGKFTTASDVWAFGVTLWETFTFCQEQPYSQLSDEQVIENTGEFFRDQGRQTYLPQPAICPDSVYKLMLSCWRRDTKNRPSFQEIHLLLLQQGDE
Chain of UniProt Q6P2M8 (whole entry, looked up): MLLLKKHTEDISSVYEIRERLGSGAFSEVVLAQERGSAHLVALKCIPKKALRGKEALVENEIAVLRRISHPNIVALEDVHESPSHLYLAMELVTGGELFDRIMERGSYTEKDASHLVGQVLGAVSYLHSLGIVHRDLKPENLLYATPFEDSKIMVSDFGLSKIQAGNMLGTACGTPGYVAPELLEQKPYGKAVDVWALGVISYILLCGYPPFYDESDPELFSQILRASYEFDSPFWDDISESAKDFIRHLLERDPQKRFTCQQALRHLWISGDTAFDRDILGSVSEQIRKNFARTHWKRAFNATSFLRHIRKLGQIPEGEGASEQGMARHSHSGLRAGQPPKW

Series 1
SMILES: CCc1ccccc1C(=O)Nc1n[nH]c2c(C)c(F)c(C3C(C#N)=C(C)N(C)C(C)=C3C#N)cc12
Observed: cell-free assay
Method: competition with immobilised ligand
Tested at: 1 µM
target	remaining binding [%]
ALK (Homo sapiens, UniProt Q9UM73)	98
CDK11B (Homo sapiens, UniProt P21127)	100
GSK3A (Homo sapiens, UniProt P49840)	90
PIK3CA (Homo sapiens, UniProt P42336, E545A)	100
MAPK3 (Homo sapiens, UniProt P27361)	95

Series 2
SMILES: CCN(CC)C(=O)c1ccc(Nc2nc(OCC3CCCCC3)c3[nH]cnc3n2)cc1
Observed: enzyme activity
Action: inhibitor
Tested at: 0.5 µM
Relative to: control
target	remaining activity
KDR (Homo sapiens, UniProt P35968)	76.5%
PRKG2 (Homo sapiens, UniProt Q13237)	80%
DDR2 (Homo sapiens, UniProt Q16832)	109%
DCLK2 (Homo sapiens, UniProt Q8N568)	97.3%
PNCK (Homo sapiens, UniProt Q6P2M8)	117%
Cyclin-dependent kinase 1, with cyclin A (CDK1, Homo sapiens, UniProt P06493)	95.2%
MAPK1 (Homo sapiens, UniProt P28482)	106%
MET (Homo sapiens, UniProt P08581)	85.3%
MINK1 (Homo sapiens, UniProt Q8N4C8)	88.5%
RPS6KA4 (Homo sapiens, UniProt O75676)	79.8%
PLK3 (Homo sapiens, UniProt Q9H4B4)	98.1%
AKT2 (Homo sapiens, UniProt P31751)	92%
MAPK14 (Homo sapiens, UniProt Q16539)	94.7%
CDC42BPB (Homo sapiens, UniProt Q9Y5S2)	99.3%

Series 3
Target: Calcium/calmodulin-dependent protein kinase type II subunit alpha (CAMK2A, Homo sapiens, UniProt Q9UQM7)
Chain of UniProt Q9UQM7 (whole entry, looked up): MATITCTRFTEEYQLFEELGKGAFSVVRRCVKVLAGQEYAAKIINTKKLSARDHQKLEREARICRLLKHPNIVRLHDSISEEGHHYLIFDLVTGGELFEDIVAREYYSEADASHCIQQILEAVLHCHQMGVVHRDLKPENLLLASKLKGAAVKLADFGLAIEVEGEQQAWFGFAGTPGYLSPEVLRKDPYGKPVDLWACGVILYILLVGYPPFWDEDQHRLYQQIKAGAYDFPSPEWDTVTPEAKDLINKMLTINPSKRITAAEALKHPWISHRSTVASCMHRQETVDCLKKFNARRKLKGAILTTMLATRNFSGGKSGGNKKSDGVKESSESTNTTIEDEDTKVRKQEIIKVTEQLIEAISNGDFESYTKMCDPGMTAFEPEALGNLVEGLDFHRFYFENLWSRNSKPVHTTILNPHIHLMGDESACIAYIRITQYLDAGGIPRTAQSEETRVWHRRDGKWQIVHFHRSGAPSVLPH
Observed: enzyme activity
Action: inhibitor
Tested at: 10 µM
SMILES	inhibition
CCC(CC)O[C@@H]1C=C(C(=O)O)C[C@H](N)[C@H]1NC(C)=O	-13%
C/C=C/C=C/C(=O)O	-0.07% and -0.08%
O=C(Nc1ccc(Cl)cc1)Nc1ccc(Cl)c(Cl)c1	-11%
CCOC(=O)c1ncn2c1CN(C)C(=O)c1cc(F)ccc1-2	-7%

Series 4
Organism: Plasmodium berghei
Action: inhibitor
Cells: Huh-7
Strain: liver stage
Tested at: 10 µM
Time: 24 h
Relative to: untreated control
Compound	infection rate
C[C@H]1COc2c(N3CCN(C)CC3)c(F)cc3c(=O)c(C(=O)O)cn1c23	55.9%
O[C@@H](c1cc(C(F)(F)F)nc2c(C(F)(F)F)cccc12)[C@H]1CCCCN1 (racemic)	70.9%
Clc1ccc(C(c2ccccc2Cl)C(Cl)Cl)cc1 (stereo not shown)	27.7%
Cc1ccccc1N1C(=O)c2cc(S(N)(=O)=O)c(Cl)cc2NC1C (stereo not shown)	93.8%
CCOC(=O)[N-]c1c[n+](N2CCOCC2)no1	92.5%

Repeated from above (series 2):
target	remaining activity
DCLK2 (Homo sapiens, UniProt Q8N568)	97.3%
PNCK (Homo sapiens, UniProt Q6P2M8)	117%
